Assay results from different studies.
Protocols differ between the studies behind these lines. ± gives the spread as reported.
CDK9: Cyclin-dependent kinase 9 (CDK9, Homo sapiens, UniProt P50750)
Sequence of UniProt P50750 (whole entry, looked up): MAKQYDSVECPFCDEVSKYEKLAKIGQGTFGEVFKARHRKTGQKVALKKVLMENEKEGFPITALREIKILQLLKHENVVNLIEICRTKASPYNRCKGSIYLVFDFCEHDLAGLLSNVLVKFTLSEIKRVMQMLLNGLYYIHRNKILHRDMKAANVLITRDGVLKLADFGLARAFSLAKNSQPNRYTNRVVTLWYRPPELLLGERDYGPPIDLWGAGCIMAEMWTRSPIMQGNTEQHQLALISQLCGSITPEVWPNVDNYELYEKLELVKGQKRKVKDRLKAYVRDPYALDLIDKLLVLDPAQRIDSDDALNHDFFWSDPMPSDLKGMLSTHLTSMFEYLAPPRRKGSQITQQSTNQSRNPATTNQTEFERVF
SMPD1: Sphingomyelin phosphodiesterase (SMPD1, Homo sapiens, UniProt P17405)
Sequence of UniProt P17405 (whole entry, looked up): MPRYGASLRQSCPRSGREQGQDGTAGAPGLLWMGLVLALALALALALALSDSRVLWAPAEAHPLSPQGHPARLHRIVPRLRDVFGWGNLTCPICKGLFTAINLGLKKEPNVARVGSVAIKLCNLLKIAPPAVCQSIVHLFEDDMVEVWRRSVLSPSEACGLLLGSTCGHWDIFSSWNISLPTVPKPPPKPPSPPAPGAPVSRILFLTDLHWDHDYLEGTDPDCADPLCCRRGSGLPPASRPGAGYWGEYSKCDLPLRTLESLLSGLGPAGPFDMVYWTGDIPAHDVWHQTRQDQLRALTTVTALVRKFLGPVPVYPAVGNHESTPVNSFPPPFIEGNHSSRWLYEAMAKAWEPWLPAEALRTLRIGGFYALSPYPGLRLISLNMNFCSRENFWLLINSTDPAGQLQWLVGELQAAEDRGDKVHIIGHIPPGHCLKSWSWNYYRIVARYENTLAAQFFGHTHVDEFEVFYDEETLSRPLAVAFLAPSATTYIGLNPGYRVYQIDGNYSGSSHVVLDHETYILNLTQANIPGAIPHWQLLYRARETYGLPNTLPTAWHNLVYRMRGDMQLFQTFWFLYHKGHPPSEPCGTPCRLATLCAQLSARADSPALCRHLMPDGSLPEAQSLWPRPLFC
PPIA: Peptidyl-prolyl cis-trans isomerase A (PPIA, Homo sapiens, UniProt P62937)
Sequence of UniProt P62937 (whole entry, looked up): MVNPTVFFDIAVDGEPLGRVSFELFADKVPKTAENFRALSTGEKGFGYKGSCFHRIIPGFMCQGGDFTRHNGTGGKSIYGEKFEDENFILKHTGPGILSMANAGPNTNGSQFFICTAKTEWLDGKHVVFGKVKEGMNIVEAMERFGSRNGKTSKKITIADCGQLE
APP: Amyloid-beta precursor protein (APP, Homo sapiens, UniProt P05067)
Sequence of UniProt P05067 (whole entry, looked up): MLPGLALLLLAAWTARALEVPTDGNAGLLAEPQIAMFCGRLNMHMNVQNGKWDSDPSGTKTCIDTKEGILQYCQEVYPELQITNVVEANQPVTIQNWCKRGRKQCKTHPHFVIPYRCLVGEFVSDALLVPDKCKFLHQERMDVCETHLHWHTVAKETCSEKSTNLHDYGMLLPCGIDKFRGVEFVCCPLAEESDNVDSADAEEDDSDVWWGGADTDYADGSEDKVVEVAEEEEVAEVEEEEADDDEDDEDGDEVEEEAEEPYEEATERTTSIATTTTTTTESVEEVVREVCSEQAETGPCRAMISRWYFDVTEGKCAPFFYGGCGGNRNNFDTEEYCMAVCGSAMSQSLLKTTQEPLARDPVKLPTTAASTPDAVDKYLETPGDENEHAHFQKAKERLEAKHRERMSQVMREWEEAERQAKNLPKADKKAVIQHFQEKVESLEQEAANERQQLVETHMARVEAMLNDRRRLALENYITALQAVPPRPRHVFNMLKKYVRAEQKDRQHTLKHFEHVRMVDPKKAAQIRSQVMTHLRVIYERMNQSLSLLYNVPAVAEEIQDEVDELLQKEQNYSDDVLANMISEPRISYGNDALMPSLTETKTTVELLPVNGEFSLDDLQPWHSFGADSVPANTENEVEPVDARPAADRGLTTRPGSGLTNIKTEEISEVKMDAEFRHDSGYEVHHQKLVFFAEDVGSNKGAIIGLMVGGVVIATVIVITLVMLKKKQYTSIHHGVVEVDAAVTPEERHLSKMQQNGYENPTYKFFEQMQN
MT-CYB: MT-CYB (Plasmodium falciparum, UniProt Q02768)
Sequence of UniProt Q02768 (whole entry, looked up): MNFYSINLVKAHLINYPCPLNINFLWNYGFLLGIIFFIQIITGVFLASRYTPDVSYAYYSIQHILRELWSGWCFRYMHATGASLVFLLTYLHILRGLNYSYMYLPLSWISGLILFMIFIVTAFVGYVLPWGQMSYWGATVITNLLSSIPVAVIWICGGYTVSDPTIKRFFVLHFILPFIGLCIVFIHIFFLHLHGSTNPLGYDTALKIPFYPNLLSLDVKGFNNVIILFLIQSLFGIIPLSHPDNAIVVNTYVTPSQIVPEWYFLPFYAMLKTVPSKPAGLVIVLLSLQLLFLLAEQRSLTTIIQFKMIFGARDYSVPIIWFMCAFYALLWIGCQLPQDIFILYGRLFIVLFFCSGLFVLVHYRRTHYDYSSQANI
MAPK14: Mitogen-activated protein kinase 14 (MAPK14, Homo sapiens, UniProt Q16539)
Sequence of UniProt Q16539 (whole entry, looked up): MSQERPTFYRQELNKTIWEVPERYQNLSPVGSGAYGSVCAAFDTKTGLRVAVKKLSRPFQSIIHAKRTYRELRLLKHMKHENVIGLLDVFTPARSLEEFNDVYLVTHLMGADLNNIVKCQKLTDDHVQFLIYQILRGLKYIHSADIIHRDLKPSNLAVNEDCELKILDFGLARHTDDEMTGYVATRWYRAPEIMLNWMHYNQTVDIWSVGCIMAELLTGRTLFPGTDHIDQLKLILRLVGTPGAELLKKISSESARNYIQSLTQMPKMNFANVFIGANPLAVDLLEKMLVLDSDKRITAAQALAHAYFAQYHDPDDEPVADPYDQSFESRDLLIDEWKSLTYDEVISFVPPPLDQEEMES
Sequence of UniProt P78329 (whole entry, looked up): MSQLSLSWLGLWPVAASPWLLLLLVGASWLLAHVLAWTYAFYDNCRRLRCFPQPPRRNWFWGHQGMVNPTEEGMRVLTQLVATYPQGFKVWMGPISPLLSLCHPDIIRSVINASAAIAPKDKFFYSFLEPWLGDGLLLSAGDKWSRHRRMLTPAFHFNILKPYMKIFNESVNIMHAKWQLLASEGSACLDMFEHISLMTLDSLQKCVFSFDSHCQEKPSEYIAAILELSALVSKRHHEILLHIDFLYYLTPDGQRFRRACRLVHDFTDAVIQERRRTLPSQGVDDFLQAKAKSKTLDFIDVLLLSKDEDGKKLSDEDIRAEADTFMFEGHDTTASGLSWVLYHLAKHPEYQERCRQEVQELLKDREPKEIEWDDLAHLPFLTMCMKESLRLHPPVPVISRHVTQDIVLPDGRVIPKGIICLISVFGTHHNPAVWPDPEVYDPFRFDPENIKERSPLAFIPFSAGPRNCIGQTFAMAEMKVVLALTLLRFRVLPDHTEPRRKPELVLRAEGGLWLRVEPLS
Sequence of UniProt Q00195 (whole entry, looked up): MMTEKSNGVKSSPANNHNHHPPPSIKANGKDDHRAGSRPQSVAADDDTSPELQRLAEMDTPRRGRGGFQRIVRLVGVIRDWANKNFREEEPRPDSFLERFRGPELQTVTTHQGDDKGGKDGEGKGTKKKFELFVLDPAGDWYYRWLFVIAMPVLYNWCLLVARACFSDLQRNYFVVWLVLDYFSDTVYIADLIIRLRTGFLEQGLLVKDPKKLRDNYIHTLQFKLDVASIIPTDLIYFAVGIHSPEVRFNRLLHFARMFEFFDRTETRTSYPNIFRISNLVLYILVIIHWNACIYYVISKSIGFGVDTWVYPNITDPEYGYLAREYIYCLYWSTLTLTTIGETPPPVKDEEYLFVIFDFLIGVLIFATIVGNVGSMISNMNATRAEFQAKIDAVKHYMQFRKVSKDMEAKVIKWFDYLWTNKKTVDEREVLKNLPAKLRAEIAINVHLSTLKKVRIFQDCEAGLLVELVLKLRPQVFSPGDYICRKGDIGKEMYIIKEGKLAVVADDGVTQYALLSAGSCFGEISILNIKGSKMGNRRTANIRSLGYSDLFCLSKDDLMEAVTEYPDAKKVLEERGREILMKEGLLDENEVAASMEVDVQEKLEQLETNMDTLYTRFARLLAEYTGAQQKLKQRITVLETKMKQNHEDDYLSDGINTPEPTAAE
Sequence of UniProt P08913 (whole entry, looked up): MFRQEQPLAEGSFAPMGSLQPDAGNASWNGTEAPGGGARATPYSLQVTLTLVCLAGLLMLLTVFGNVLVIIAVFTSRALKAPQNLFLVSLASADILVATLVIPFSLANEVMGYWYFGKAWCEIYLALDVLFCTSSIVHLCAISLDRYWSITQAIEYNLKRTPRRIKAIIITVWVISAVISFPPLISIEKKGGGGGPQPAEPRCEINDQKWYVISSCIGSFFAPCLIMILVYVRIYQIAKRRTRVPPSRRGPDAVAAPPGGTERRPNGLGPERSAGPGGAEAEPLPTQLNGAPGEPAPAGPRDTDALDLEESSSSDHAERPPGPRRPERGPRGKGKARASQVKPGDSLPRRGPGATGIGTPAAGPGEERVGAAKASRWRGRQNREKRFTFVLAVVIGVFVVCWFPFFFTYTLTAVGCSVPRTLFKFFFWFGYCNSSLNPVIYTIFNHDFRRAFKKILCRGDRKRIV
Sequence of UniProt P09211 (whole entry, looked up): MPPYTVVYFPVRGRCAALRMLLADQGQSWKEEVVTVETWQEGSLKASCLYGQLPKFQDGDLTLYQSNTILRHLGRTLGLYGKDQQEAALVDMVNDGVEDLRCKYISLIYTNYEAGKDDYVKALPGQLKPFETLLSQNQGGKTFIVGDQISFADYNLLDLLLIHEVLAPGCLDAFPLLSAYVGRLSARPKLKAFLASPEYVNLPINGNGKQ

The inhibition of `Clc1ccc(N2CCN(Cc3c[nH]c4ncccc34)CC2)cc1` is reported as roughly 30% (Alpha-2A adrenergic receptor (ADRA2A, Homo sapiens, UniProt P08913); [3H]RX821002 binding, radioligand displacement; Sf9 membranes; concentration not given).
`LLHNYGVYT` has an inhibition of 25% (ITGAM (Homo sapiens, UniProt P11215); binding to fibrinogen D fragment; peptide; 200 µM, together with: fibrinogen D fragment 1 µg/mL).
Under inhibition, `Cc1cccc(C)c1C(=O)OCC(=O)[C@H](CCCCN)NC(=O)[C@H](CCCN=C(N)N)NC(=O)OCc1ccccc1` is recorded as “no inhibition” (Cathepsin B (CTSB, Homo sapiens, UniProt P07858); peptide library cleavage, MSP-MS; 64 nM, 1 h, pH 4.6, 30 min preincubation).
For `CC(C)(C)c1cnc(CSc2cnc(NC(=O)C3CCN(CC(=O)NCCOCCOCCOCCNc4cccc5c4C(=O)N(C4CCC(=O)NC4=O)C5=O)CC3)s2)o1` (centres unmarked), the inhibition was 30.7% (CDK9; target engagement in cells, inhibitor, chemoproteomics; MOLT-4; 0.25 µM).
`COc1ccc(C2=NN(C(=O)COC(=O)c3ccc(S(C)(=O)=O)c([N+](=O)[O-])c3)C(c3ccco3)C2)cc1` (centres unmarked) — result for inhibition: “inactive” (SMPD1; inhibitor; concentration not given, pH 6.5, together with: sphingomyelin substrate).
`COC(=O)c1cc(Cc2ccc(NCc3ccccc3)c(C(=O)O)c2)ccc1NCc1ccccc1` has an inhibition of 6.5% (PPIA; enzyme activity, inhibitor; 10 µM).
With `CCCCCCCC(=O)OC[C@H](CO)OC(=O)CCCCCCC` the inhibition was 72% (Cyclic nucleotide-gated channel alpha-2 (Cnga2, Rattus norvegicus, UniProt Q00195); cGMP-activated current, inside-out patch, Xenopus oocytes; 0.5 µM, together with: cGMP 2 µM).
Under inhibition, `CNC(=O)[C@H](Cc1c[nH]c2ccccc12)NC(=O)[C@@H](CC(=O)NO)CC(C)C` is recorded as “inhibited” (Matrix metalloproteinase-14, ectodomain (MMP14, Homo sapiens, UniProt P50281); Aβ40 degradation, immunoblotting; 10 µM, 24 h, 37 °C).
With `COc1cc(OC)cc(C(=O)Nc2ccc(Cc3ccc(NC(=O)c4cc(OC)cc(OC)c4)c(C(=O)O)c3)cc2C(=O)O)c1` the inhibition was 12.4% (PPIA; enzyme activity, inhibitor; 10 µM).
The inhibition of `CCC[C@H](N)C(=O)N[C@H](C(=O)N[C@H](C(=O)N[C@@H](C)C(N)=O)[C@@H](C)CC)C(C)C` is reported as 77.2% (APP; amyloid aggregation, inhibitor, fluorescence; 2 µM, 24 h).
`Cc1cccc(-c2nn(-c3ccccc3)cc2C(=O)Nc2nnc(C)o2)c1` has an inhibition of 47.9% (MT-CYB; enzyme activity, inhibitor; 0.5 µM).
`CC[C@H](C)[C@H](NC(=O)[C@@H]1CCCN1C(=O)[C@@H]1CCCN1)C(=O)N[C@@H](C)C(N)=O` gave an inhibition of 24.7% (APP; amyloid aggregation, inhibitor, fluorescence; 2 µM, 24 h).
The inhibition of `CC(C)(C)OC(=O)NCCNC(=O)CN1C(=O)Cc2c([nH]c3ccc(Br)cc23)-c2ccc(Cl)cc21` is reported as 37% (Trypanothione synthetase (Leishmania infantum, UniProt A4I2Z3); enzyme activity; 30 µM).
For `COc1ccc(NS(=O)(=O)c2cc(NC(=O)Cn3ccccc3=O)ccc2N2CCCCC2)cc1`, the inhibition was 14.6% (MT-CYB; enzyme activity, inhibitor; 0.5 µM).
`COC(=O)c1cc(CCc2ccc(NC(=O)c3cc(OC)cc(OC)c3)c(C(=O)OC)c2)ccc1NC(=O)c1cc(OC)cc(OC)c1` gave an inhibition of 15.6% (PPIA; enzyme activity, inhibitor; 10 µM).
`Cc1cc(NC(=O)c2cccc(NC(=O)/C=C/CN(C)C)c2)ccc1Nc1nccc(-c2cccnc2)n1` gave an inhibition of 13.2% (MAPK14; ATP-biotin kinase labeling, KiNativ; A-375; 1 µM, 3 h).
`Cc1c(C)c2c(c(C)c1O)CC[C@@](C)(CCCCCCCCCn1ccnc1)O2` — result for inhibition: “inhibited” (Cytochrome P450 4F2 (Homo sapiens, UniProt P78329); γ-tocopherol metabolism; HepG2; 1 µM, 6 h pre-incubation, together with: γ-tocopherol 25 µM for 24 h after washout).
With `Cc1ccc(C2CC(c3ccccc3O)=NN2c2ccc(S(N)(=O)=O)cc2)cc1` (centres unmarked) the inhibition was less than 50% (Carbonic anhydrase 2 (CA2, Homo sapiens, UniProt P00918); enzyme activity, inhibitor, absorbance; 1 mM).
For `CC(C)(C)c1cnc(CSc2cnc(NC(=O)C3CCNCC3)s2)o1`, the inhibition was 15.9% (CDK9; probe labeling, KiNativ live-cell profiling; MOLT-4 CRBN knockout; 0.25 µM).
For `O=C(/C=C/C1=CC(=O)C(=O)C=C1)OCCc1ccccc1`, the inhibition was 70 to 93% (Glutathione S-transferase P (GSTP1, Homo sapiens, UniProt P09211); enzyme activity; human placenta; 10 to 50 µM, together with: CDNB).
The inhibition of `CC[C@H](C)[C@H](NC(=O)[C@@H](NC(=O)[C@@H](N)C(C)C)C(C)C)C(=O)N[C@@H](CC(C)C)C(N)=O` is reported as 18.7% (APP; amyloid aggregation, inhibitor, fluorescence; 2 µM, 24 h).
`Fc1ccc(Cn2c(NCc3ccco3)nc3ccccc32)c(Cl)c1` has an inhibition of 24% (Short transient receptor potential channel 5 (TRPC5, Homo sapiens, UniProt Q9UL62); ion current, inhibitor, automated patch clamp; 3 µM; baseline: reference inhibitor).
`CC[C@H](C)[C@H](NC(=O)[C@@H](NC(=O)[C@H]1CCCN1)C(C)C)C(=O)N[C@@H](C)C(N)=O` gave an inhibition of 52.9% (APP; amyloid aggregation, inhibitor, fluorescence; 4 µM, 24 h).
The inhibition of `CCCC[C@H](NC(=O)C(=O)CCCCc1ccc(OC)cc1)C(=O)N[C@@H](C)C(=O)OC(C)(C)C` is reported as 73.4 ± 1.3% (Cytosolic phospholipase A2 (PLA2G4A, Homo sapiens, UniProt P47712); enzyme activity, mixed micelle; 0.091 mole fraction).
`CC[C@H](C)[C@H](NC(=O)[C@@H](NC(=O)[C@@H](N)C(C)C)C(C)C)C(=O)N[C@H](C)C(N)=O` has an inhibition of 68.6% (APP; amyloid aggregation, inhibitor, fluorescence; 2 µM, 24 h).
With `Cc1cccc2nc(-c3ccc(-c4ccc(CN5CC(C)OC(C)C5)cc4)cc3)[nH]c12.O=C(O)C(F)(F)F` (centres unmarked) the inhibition was 49% (MT-CYB; enzyme activity, inhibitor; 0.5 µM).
`CC[C@H](C)[C@H](NC(=O)[C@@H](NC(=O)[C@@H](N)Cc1ccccc1)C(C)C)C(=O)N[C@@H](C)C(N)=O` has an inhibition of 66.2% (APP; amyloid aggregation, inhibitor, fluorescence; 4 µM, 24 h).
With `OCc1cn([C@H]2O[C@H](CO)[C@@H](O)[C@H](O)[C@H]2O)nn1` the inhibition was 12% (Lysosomal alpha-glucosidase (GAA, Homo sapiens, UniProt P10253); enzyme activity, inhibitor, fluorescence; 1.43 mM, pH 4, lysate).
For `Clc1ccc(SCCOCCN2CCCCCC2)cc1.O=C(O)C(=O)O`, inhibition read “inhibited” (SMPD1; inhibitor; concentration not given, pH 6.5, together with: sphingomyelin substrate).
For `CN(C)C/C=C/C(=O)Nc1cccc(C(=O)Nc2ccc(Nc3nccc(-c4c(-c5ccccc5)nn5ccccc45)n3)cc2)c1`, the inhibition was 95.9% (MAPK14; ATP-biotin kinase labeling, KiNativ; A-375; 1 µM, 3 h).
For `CC[C@H](C)[C@H](NC(=O)C(C)(C)NC(=O)[C@@H](N)C(C)C)C(=O)N[C@@H](C)C(N)=O`, the inhibition was 50% (APP; amyloid aggregation, inhibitor, fluorescence; 4 µM, 24 h).
`COCCN(C)c1ccc(C(=O)Nc2ccccc2)cc1NS(=O)(=O)Cc1ccccc1.O=C(O)C(F)(F)F` gave an inhibition of 56.2% (MT-CYB; enzyme activity, inhibitor; 0.5 µM).
